Results of several laboratories.
Every numbered part comes from another study and shows a few of its results, in no order. pIC50: −log10 of the molar value.
Sequence of UniProt P52333 (whole entry, looked up): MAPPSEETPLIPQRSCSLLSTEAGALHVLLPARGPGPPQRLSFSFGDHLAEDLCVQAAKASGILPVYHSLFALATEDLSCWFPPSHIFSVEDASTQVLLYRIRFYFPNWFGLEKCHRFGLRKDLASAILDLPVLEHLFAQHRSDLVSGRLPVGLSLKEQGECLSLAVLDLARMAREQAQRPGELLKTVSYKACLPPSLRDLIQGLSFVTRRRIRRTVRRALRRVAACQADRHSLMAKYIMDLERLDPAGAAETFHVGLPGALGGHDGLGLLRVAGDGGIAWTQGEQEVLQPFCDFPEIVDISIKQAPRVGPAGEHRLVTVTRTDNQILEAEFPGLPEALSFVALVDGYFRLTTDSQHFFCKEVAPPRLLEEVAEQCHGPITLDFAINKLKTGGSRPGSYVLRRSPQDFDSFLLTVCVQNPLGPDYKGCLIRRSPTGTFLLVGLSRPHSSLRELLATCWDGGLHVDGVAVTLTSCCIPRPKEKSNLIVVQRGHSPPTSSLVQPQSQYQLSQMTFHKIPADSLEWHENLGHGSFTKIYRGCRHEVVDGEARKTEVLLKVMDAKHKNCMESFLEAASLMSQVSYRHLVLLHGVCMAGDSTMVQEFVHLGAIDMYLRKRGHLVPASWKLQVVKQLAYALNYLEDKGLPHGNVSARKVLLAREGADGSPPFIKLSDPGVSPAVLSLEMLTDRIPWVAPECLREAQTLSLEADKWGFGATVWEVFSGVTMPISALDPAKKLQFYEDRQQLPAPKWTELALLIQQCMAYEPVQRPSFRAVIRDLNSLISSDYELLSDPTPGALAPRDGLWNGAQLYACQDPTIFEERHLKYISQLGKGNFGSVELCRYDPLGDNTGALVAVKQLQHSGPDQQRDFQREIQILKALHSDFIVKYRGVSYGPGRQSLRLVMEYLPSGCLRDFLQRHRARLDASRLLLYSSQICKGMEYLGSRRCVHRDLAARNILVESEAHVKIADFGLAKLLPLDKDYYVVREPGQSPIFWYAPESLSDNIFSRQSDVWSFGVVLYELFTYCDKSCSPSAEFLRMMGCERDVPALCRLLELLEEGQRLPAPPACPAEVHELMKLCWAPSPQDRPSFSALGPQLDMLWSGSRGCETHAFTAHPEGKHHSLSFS
Sequence of UniProt P19525 (whole entry, looked up): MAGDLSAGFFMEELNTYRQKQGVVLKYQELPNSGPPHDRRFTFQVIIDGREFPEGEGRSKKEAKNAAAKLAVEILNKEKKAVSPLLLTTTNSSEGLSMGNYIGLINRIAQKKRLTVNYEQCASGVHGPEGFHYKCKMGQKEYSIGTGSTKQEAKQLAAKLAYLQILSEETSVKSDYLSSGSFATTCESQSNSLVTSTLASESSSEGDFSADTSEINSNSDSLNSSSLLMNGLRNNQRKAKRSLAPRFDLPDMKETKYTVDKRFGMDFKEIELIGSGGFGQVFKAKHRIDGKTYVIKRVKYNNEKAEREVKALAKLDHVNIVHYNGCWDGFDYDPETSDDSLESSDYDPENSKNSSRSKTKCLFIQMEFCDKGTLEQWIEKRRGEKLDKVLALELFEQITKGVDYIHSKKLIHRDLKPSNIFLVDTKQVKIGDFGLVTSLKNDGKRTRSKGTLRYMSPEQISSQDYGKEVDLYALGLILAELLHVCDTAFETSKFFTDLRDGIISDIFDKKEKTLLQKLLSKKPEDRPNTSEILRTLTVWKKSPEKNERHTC
Sequence of UniProt P57059 (whole entry, looked up): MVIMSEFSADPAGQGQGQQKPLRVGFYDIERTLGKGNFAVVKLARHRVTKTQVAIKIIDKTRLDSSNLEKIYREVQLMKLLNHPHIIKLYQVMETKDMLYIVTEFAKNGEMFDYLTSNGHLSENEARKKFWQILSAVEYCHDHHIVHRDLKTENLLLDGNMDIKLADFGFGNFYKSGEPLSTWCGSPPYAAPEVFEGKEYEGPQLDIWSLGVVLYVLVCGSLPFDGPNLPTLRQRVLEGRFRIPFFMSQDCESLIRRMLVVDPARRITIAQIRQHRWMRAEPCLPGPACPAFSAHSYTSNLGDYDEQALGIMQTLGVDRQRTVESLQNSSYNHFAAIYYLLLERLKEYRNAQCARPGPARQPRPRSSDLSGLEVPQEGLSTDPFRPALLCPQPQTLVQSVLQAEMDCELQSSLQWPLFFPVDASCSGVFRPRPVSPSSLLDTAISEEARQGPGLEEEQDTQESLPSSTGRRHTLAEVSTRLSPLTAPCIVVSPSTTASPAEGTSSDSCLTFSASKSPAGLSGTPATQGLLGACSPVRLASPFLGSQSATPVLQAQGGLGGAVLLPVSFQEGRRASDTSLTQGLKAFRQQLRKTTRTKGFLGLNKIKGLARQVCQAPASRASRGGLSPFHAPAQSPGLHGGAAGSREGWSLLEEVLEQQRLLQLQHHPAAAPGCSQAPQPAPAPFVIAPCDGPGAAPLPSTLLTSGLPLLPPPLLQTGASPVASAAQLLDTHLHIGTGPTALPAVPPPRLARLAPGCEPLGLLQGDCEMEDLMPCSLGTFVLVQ
Sequence of UniProt Q13705 (whole entry, looked up): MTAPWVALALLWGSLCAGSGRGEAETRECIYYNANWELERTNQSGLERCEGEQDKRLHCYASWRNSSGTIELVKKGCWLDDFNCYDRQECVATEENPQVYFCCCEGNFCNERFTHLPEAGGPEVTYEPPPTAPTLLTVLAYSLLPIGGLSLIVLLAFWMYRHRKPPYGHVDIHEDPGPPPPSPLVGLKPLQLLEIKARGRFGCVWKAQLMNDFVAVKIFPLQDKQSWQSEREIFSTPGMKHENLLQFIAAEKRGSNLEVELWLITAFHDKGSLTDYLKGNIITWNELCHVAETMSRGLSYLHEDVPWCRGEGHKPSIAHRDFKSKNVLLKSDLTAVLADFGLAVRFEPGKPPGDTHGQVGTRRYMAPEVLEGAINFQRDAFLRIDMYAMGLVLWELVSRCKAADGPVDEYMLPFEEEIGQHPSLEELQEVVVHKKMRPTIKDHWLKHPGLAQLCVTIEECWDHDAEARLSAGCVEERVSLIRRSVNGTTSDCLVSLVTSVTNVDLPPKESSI

Sample 1 — observed: enzyme activity; mode: inhibitor; tested at: 10 µM; measurement: inhibition
Target: Calcium/calmodulin-dependent protein kinase type II subunit alpha (CAMK2A, Homo sapiens, UniProt Q9UQM7)
Sequence of UniProt Q9UQM7 (whole entry, looked up): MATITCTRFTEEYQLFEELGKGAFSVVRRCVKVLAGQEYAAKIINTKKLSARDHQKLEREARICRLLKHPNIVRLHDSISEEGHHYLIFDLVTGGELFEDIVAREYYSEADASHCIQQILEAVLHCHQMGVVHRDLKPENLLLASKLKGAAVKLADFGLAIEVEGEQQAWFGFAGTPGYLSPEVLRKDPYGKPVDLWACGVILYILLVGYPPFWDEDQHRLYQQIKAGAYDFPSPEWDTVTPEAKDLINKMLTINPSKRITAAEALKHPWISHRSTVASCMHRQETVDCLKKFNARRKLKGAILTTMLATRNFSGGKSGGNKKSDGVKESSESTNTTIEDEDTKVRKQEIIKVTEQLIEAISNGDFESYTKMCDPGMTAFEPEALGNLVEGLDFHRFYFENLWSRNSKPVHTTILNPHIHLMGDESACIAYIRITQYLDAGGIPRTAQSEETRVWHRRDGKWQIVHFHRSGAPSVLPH
CC(C)(O)CC(=O)O: -19%
NC(CCSSCCC(N)C(=O)O)C(=O)O (stereo not drawn): -10%
Nc1ncnc(N)c1NC=O: -1%
O=c1cc(-c2ccc(O)cc2)oc2cc(O)ccc12: 38%
Nc1ncn([C@H]2C[C@H](O)[C@@H](CO)O2)c(=O)n1: 0%
CO[C@H]1C(=O)[C@]2(C)[C@@H](OC)C[C@H]3OC[C@@]3(OC(C)=O)[C@H]2[C@H](OC(=O)c2ccccc2)[C@]2(O)C[C@H](OC(=O)[C@H](O)[C@@H](NC(=O)OC(C)(C)C)c3ccccc3)C(C)=C1C2(C)C: 3%
CCCCCCCC=O: -2%
C/C=C(\C)C(=O)O[C@H]1[C@H](O)[C@]2(COC(C)=O)[C@H](O)C[C@]3(C)C(=CC[C@@H]4[C@@]5(C)CC[C@H](O[C@@H]6O[C@H](C(=O)O)[C@@H](O[C@@H]7O[C@H](CO)[C@@H](O)[C@H](O)[C@H]7O)[C@H](O)[C@H]6O[C@@H]6O[C@H](CO)[C@@H](O)[C@H](O)[C@H]6O)[C@](C)(CO)[C@@H]5CC[C@]43C)[C@@H]2CC1(C)C: -23%
Cn1c(=O)c2[nH]c(=O)[nH]c2n(C)c1=O: -25%
CCC(O)CC(=O)O (stereo not drawn): -14%
COc1ccc(-c2oc3c(CC=C(C)C)c(O[C@@H]4O[C@H](CO)[C@@H](O)[C@H](O)[C@H]4O)cc(O)c3c(=O)c2O)cc1: 24%
C[C@@H]1O[C@@H](O[C@H]2[C@H](O[C@H]3CC[C@]4(C)[C@H]5CC=C6[C@@H]7CC(C)(C)CC[C@]7(C(=O)O[C@@H]7O[C@H](CO[C@@H]8O[C@H](CO)[C@@H](O[C@@H]9O[C@@H](C)[C@H](O)[C@@H](O)[C@H]9O)[C@H](O)[C@H]8O)[C@@H](O)[C@H](O)[C@H]7O)CC[C@@]6(C)[C@]5(C)CC[C@H]4C3(C)C)OC[C@H](O)[C@@H]2O)[C@H](O)[C@H](O)[C@H]1O: 8%
COc1cc2c(CCNC(C)=O)c[nH]c2cc1O: -14%
CC#C[C@]1(O)CC[C@H]2[C@@H]3CCC4=CC(=O)CCC4=C3[C@@H](c3ccc(N(C)C)cc3)C[C@@]21C: -8%
CN[C@H]1CC[C@@H](c2ccc(Cl)c(Cl)c2)c2ccccc21: -9%

Sample 2 — tested at: 1 µM; measurement: remaining binding
SMILES: CC(=O)N1CCC(c2ccc(C(=O)NC3=NCCN3)cc2C(F)(F)F)CC1
BLK (Homo sapiens, UniProt P51451); cell-free assay, competition with immobilised ligand: 94%
DSTYK (Homo sapiens, UniProt Q6XUX3); cell-free assay, competition with immobilised ligand: 74%
EIF2AK2 (Homo sapiens, UniProt P19525); cell-free assay, competition with immobilised ligand: 100%
ACVR2A (Homo sapiens, UniProt P27037); cell-free assay, competition with immobilised ligand: 100%
CAMKK2 (Homo sapiens, UniProt Q96RR4); cell-free assay, competition with immobilised ligand: 100%
Aurora kinase A (AURKA, Homo sapiens, UniProt O14965); cell-free assay, competition with immobilised ligand: 100%
ACVR2B (Homo sapiens, UniProt Q13705); binding, competition with immobilised ligand: 100%
EGFR (Homo sapiens, UniProt P00533, del747-752/P753S); cell-free assay, competition with immobilised ligand: 100%
EGFR (Homo sapiens, UniProt P00533, A750P/del747-749); cell-free assay, competition with immobilised ligand: 89%
Myosin-IIIb (MYO3B, Homo sapiens, UniProt Q8WXR4); binding, competition with immobilised ligand: 100%
Cyclin-dependent kinase 4, with cyclin D3 (CDK4, Homo sapiens, UniProt P11802); cell-free assay, competition with immobilised ligand: 100%
MAPKAPK5 (Homo sapiens, UniProt Q8IW41); cell-free assay, competition with immobilised ligand: 88%
INSRR (Homo sapiens, UniProt P14616); cell-free assay, competition with immobilised ligand: 81%
DDR2 (Homo sapiens, UniProt Q16832); cell-free assay, competition with immobilised ligand: 96%
SGK2 (Homo sapiens, UniProt Q9HBY8); cell-free assay, competition with immobilised ligand: 100%
CAMK2B (Homo sapiens, UniProt Q13554); cell-free assay, competition with immobilised ligand: 88%
VRK2 (Homo sapiens, UniProt Q86Y07); cell-free assay, competition with immobilised ligand: 100%
Tyrosine-protein kinase JAK3, JH1 (JAK3, Homo sapiens, UniProt P52333); cell-free assay, competition with immobilised ligand: 100%
FLT3 (Homo sapiens, UniProt P36888, D835Y); cell-free assay, competition with immobilised ligand: 98%
SIK1 (Homo sapiens, UniProt P57059); competition binding: 100%
STK39 (Homo sapiens, UniProt Q9UEW8); cell-free assay, competition with immobilised ligand: 100%
EGFR (Homo sapiens, UniProt P00533, L858R/T790M); cell-free assay, competition with immobilised ligand: 100%
STK32A (Homo sapiens, UniProt Q8WU08); cell-free assay, competition with immobilised ligand: 100%
DAPK3 (Homo sapiens, UniProt O43293); cell-free assay, competition with immobilised ligand: 84%
FLT3 (Homo sapiens, UniProt P36888, ITD); cell-free assay, competition with immobilised ligand: 100%

Sample 3 — Compound: C=CCc1ccc(O)c(-c2cc(CC=C)ccc2O)c1; observed: chloride current; method: whole-cell voltage clamp; measurement: pIC50
ANO1 del476-501/F623A: Anoctamin-1 (ANO1, Homo sapiens, UniProt Q5XXA6, del476-501/F623A)
Sequence of UniProt Q5XXA6 (whole entry, unmodified, looked up): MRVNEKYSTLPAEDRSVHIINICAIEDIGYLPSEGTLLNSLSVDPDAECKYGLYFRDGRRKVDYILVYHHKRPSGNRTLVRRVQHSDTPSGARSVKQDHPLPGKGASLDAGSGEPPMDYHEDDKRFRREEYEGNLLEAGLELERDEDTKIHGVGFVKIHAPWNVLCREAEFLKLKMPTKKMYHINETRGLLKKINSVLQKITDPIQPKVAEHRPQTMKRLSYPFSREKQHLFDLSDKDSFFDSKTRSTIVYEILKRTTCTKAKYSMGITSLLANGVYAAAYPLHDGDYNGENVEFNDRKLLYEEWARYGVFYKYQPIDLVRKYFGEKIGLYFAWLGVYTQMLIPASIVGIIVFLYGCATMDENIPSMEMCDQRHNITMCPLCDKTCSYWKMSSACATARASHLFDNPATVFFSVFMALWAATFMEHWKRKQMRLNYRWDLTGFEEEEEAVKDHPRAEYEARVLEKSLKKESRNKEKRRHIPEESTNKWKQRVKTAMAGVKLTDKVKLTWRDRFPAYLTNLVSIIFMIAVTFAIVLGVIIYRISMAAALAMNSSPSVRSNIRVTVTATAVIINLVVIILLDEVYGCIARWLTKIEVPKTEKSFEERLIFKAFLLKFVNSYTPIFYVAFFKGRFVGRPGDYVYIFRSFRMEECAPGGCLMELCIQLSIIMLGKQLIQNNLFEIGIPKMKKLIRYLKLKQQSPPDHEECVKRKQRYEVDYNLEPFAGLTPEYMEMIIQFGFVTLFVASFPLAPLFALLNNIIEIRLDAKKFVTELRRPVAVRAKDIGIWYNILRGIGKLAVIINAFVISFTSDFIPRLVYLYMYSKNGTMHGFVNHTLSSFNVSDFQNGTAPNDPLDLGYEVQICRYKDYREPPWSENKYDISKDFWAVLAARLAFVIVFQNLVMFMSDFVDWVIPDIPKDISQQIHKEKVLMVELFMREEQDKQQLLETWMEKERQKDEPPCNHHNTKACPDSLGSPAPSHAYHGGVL
ANO1 del476-501/E649I: Anoctamin-1 (ANO1, Homo sapiens, UniProt Q5XXA6, del476-501/E649I)
ANO1 del476-501: Anoctamin-1 (ANO1, Homo sapiens, UniProt Q5XXA6, del476-501)
Anoctamin-1 (ANO1, Homo sapiens, UniProt Q5XXA6, del476-501/E649K); inhibitor; E623K mutant at -60 mV: 3.85
Anoctamin-1 (ANO1, Homo sapiens, UniProt Q5XXA6, del476-501/L548A); membrane voltage -100 mV: 4.26
ANO1 del476-501/F623A; membrane voltage -40 mV: 4.38
ANO1 del476-501/E649I; inhibitor; E623I mutant at -80 mV: 3.83
ANO1 del476-501; membrane voltage -60 mV, together with: 300 nM Ca2+: 4.64
Anoctamin-1 (ANO1, Homo sapiens, UniProt Q5XXA6, del476-501/E649D); inhibitor; mutant E623D: 4.24
Anoctamin-1 (ANO1, Homo sapiens, UniProt Q5XXA6, D383A/del476-501); membrane voltage 20 mV: 4.63
Anoctamin-1 (ANO1, Homo sapiens, UniProt Q5XXA6, del476-501/F807A); membrane voltage 20 mV: 4.76
ANO1 del476-501; membrane voltage -40 mV, together with: 300 nM Ca2+: 4.71
Anoctamin-1 (ANO1, Homo sapiens, UniProt Q5XXA6, del476-501/E650A); membrane voltage -60 mV: 4.60
Anoctamin-1 (ANO1, Homo sapiens, UniProt Q5XXA6, del476-501/R541I); inhibitor; R515I mutant at -100 mV: 4.28
ANO1 del476-501/F623A; membrane voltage -60 mV: 4.32
Anoctamin-1 (ANO1, Homo sapiens, UniProt Q5XXA6, del476-501/K629I); inhibitor; mutant K603I: 3.67
ANO1 del476-501/E649I; inhibitor; E623I mutant at 40 mV: 3.92

Sample 4 — observed: enzyme activity; mode: inhibitor; tested at: 0.5 µM; reference: control; measurement: remaining activity
Target: Activin receptor type-1-like (ACVRL1, Homo sapiens, UniProt P37023)
Sequence of UniProt P37023 (whole entry, looked up): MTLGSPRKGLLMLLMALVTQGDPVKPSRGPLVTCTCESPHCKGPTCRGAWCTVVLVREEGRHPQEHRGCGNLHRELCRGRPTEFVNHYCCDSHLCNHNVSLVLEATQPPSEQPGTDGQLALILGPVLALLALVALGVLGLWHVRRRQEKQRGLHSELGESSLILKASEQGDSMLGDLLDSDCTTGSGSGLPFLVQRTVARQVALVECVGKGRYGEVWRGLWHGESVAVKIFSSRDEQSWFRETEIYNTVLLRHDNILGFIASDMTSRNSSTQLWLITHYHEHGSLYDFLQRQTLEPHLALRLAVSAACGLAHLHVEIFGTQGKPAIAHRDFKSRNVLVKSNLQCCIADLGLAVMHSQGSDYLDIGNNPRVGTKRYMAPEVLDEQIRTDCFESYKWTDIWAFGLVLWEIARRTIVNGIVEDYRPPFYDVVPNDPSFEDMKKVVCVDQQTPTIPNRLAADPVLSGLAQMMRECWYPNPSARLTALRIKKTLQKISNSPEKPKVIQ
CC#CC(=O)Nc1cc2c(Nc3ccc(F)c(Cl)c3)ncnc2cn1: 101%
Cc1ccc(NC2=CC(=O)c3sc(C)nc3C2=O)cc1: 101%
CCc1[nH]c(-c2ccc(OC)cc2)nc1-c1ccncc1: 101%
CSc1nc(-c2ccnc(N[C@@H](C)c3ccccc3)c2)c(-c2ccc(F)cc2)[nH]1 (racemic): 92.2%
Nc1nccc(-c2c(-c3ccc(F)cc3)ncn2C2CCNCC2)n1: 95.6%
N#CC(=C(N)Sc1ccc(N)cc1)c1ccccc1C(F)(F)F: 106%
O=S(=O)(NCCNC/C=C/c1ccc(Br)cc1)c1cccc2cnccc12: 119%
Cc1cncc2cccc(S(=O)(=O)N3CCCN(C(=O)CN)C[C@@H]3C)c12: 99.2%
Oc1ccc(Nc2nc(-c3ccc(Cl)cc3)cs2)cc1: 103%
O=C1NC(=O)C(c2c[nH]c3ccccc23)=C1c1c[nH]c2ccccc12: 96.5%
Nc1nc(Nc2ccc(S(N)(=O)=O)cc2)nn1C(=O)c1c(F)cccc1F: 88.5%
O=C1Cc2c([nH]c3ccc([N+](=O)[O-])cc23)-c2ccccc2N1: 76.2%
Nc1ncnc2c1cnn2-c1ccccc1: 109%
Fc1ccc(-c2nc3n(c2-c2ccncc2)CCS3)cc1: 97.9%
CCCC(=O)Oc1ccc2[nH]c(C(=O)c3cc4ccccc4[nH]3)cc2c1: 90.9%
CC(=O)c1ccc(N2CCOCC2)cc1O: 103%
CC(C)(C)n1nc(Cc2cccc3ccccc23)c2c(N)ncnc21: 116%
NC(=O)c1ccc(N(C(N)=O)c2c(F)cccc2F)nc1-c1ccc(F)cc1F: 99.3%
CC[n+]1c(/C=C/N(C)c2ccccc2)n(-c2ccccc2)c2ccc(-c3nc4ccccc4s3)cc21: 110%
COc1ccc(S(=O)(=O)N(CCO)c2ccccc2CN(C)CC=Cc2ccc(Cl)cc2)cc1: 98.4%
Cc1cc(Nc2nc(-c3ccccc3)nc3ccccc23)n[nH]1: 115%

A few entries again (sample 4):
Oc1ccc(Nc2nc(-c3ccc(Cl)cc3)cs2)cc1: 103%
Cc1cncc2cccc(S(=O)(=O)N3CCCN(C(=O)CN)C[C@@H]3C)c12: 99.2%
Nc1nc(Nc2ccc(S(N)(=O)=O)cc2)nn1C(=O)c1c(F)cccc1F: 88.5%
CC(=O)c1ccc(N2CCOCC2)cc1O: 103%
CCCC(=O)Oc1ccc2[nH]c(C(=O)c3cc4ccccc4[nH]3)cc2c1: 90.9%
O=C1NC(=O)C(c2c[nH]c3ccccc23)=C1c1c[nH]c2ccccc12: 96.5%
O=S(=O)(NCCNC/C=C/c1ccc(Br)cc1)c1cccc2cnccc12: 119%
Cc1cc(Nc2nc(-c3ccccc3)nc3ccccc23)n[nH]1: 115%
N#CC(=C(N)Sc1ccc(N)cc1)c1ccccc1C(F)(F)F: 106%
Nc1nccc(-c2c(-c3ccc(F)cc3)ncn2C2CCNCC2)n1: 95.6%
CC#CC(=O)Nc1cc2c(Nc3ccc(F)c(Cl)c3)ncnc2cn1: 101%
O=C1Cc2c([nH]c3ccc([N+](=O)[O-])cc23)-c2ccccc2N1: 76.2%
